Measurements from different studies.
Every numbered part comes from another study and shows a few of its results, in no order.

Set 1 — method: protein-binding microarray; molecule type: double-stranded DNA, one strand shown; medium: in vitro; tested at: 2540 nM top; notes: 60-bp whole probe; added: salmon DNA 0.4 mg/ml; reference: random background probes; reading: higher = stronger binding; shared flanks, not repeated: GCCTAGCAC … GTCTTGATTCGCTTGACGCTGCTG
Target: Interferon regulatory factor 3, full length, phosphomimetic (IRF3, Homo sapiens, UniProt Q14653, residues 1-427, S386D/S396D/S398D/S402D/T404D/S405D)
Sequence of UniProt Q14653 (whole entry, unmodified, looked up): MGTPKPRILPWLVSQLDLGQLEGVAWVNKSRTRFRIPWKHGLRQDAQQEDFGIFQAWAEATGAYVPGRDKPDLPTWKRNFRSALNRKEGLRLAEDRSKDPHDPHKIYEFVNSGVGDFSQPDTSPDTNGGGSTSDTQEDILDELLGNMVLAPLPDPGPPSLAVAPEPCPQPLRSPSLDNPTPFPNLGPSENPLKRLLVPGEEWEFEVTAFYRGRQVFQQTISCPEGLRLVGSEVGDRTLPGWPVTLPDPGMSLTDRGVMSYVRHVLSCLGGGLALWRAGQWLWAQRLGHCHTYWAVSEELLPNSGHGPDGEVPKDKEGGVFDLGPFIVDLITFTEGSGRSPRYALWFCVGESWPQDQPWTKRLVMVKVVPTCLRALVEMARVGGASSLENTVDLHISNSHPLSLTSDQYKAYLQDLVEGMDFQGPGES
| Sequence | fitted relative affinity |
| --- | --- |
| TTAGAACTGAGTCTAGATTAGTGCTAG | -0.46 z-score |
| GACTGTATCGGGACTGGGGACGTGCTA | 1.67 z-score |
| GACGATCTCATTATCGAGACGTGCTAG | 1.02 z-score |
| GCCGGACTGGGGTTTCGGGACGTGCTA | 0.981 z-score |
| TTAGATATCAGTTTCGAGTAGTGCTAG | 3.23 z-score |
| GACGATATCGCGACTGGAGACGTGCTA | -0.179 z-score |
| TTAGGACTGGTCTTTCGGTTAGTGCTA | 0.118 z-score |
| TTAGGTTTCCTTTTCCTATAGTGCTAG | 11.8 z-score |
| AACGGTCTCGGTCTCGGGACGTGCTAG | 1.21 z-score |
| TCATTTATGCACTCTCTAACTGTGCTA | 1.38 z-score |
| TCACATATCGGGGTGCGCACTGTGCTA | 0.282 z-score |
| AGGAATCTTGAGTTAGAGACGTGCTAG | -0.644 z-score |
| GGCGGTTCCCTTTTCCTGACGTGCTAG | 6.46 z-score |
| ATATATTCATATATATATGAGTGCTAG | 1.08 z-score |
| GTTTCTTTTCTTTTCTTTTTGTGCTAG | 7.05 z-score |
| TTAGGTATCGGAACTGGGTTAGTGCTA | 3.64 z-score |
| TTAGGTTTCCTTCGCCTTTAGTGCTAG | 2.98 z-score |

Set 2 — method: RNA Bind-n-Seq; molecule type: RNA; medium: in vitro; tested at: 365 nM; reference: no-protein control; reading: higher = stronger binding
Target: RNA binding protein fox-1 homolog 2, RRM domain, GST-SBP tag (RBFOX2, Homo sapiens, UniProt O43251-10, residues 100-194)
Notes: natural RNA segment, single round, ends assumed
Shared flanks, not repeated: GGGAGUUCUACAGUCCGACGAUC … UGGAAUUCUCGGGUGCCAA
Residues (chain): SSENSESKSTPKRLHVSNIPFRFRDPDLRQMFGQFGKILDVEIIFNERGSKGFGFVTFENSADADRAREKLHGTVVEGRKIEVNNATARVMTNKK
| Sequence | RBNS enrichment (R) |
| --- | --- |
| AACAGCAUAGGAUUGUAUGUGGGAGGUGGAUAGGUCGGUGAUGUGUGGAGCGGAAAAGCAGGUUGGUAAAGUUCCCUUCUUGGGACUUAUUCCUGGAGUCAGUGGAUACA | 1.22 |
| CUAAUCCCUAAAAUAGUUAGAUCUUUGUAAAUGCAUAUUAAAUAAUAAAGUAUGACCCACAUUACUUUUUAUGGGUGAAAAUAAGACAAAAAUAAUAGUUUUAGUGAGGA | 0.758 |
| CAUGAAAAAAAUCAAAUUUUUGAUUUAUUAUAAAUGAAUGUUGUCCCUGAACUUAGCUAAAUGGUGCACUUAGUUUCUCCUUGCUUUCAUAUUAUCGAAUUCGAAUUUCC | 0.396 |
| GUAGGGAGGAAAACCUGUCAUUUUUGUUGUUUUGCCAGAAUGAAUGACGAUAACUCCUCCUGUUAACAAAACUAUACUUAAAGCAGUAGCAGUACUCUGCCAAUUUUAGA | 0.697 |
| GCUUACCAGCUCAAGACUUAUCUAACCCUAAAAGCAGGGAAGAACCCGGUGCGGCCUCAGCAGCUUCUGUGGGAACAGAGCCAGUCUGCACGGAGGAGGCUAAGACUCCA | 0.318 |
| CCUAGAAGGUUUAUACUGCCUUCUUGCUUUAAAGCAAUUGGUCUAAAAUAUAUGUAAUCGUCUUAAUUAAAACGUUGCAGUAGGGUUGCUUUUAGAGUAUUAUUUUUUUG | 0.621 |
| GGAAGGGGAAGCCCCCACACAGAGACCCCACUGGGACACUGCCUAGUAGAGCUGUCAGAAGAAGGCCACCGUCCUCCAGACAUCAGAAUGGUAUAUCCACUGACAGCUUG | 0.213 |
| UCUAUGACUGUGUUGACACGGAGAUUAAGUUCUUUAAGUGAAGUAAGCGUUCCCUUUCCCCUUCUUAUUUAAGACUUCCCACCUUACUAAAUUACCAGCAAAACAAACCA | 0.792 |
| UUUUUUUCAGAGCCAGUGGCUGGUCUUCCAUUUACAGUGUCACUAUUCCCUGACGGAGCUGUUAUGUGCCGCUCUAGCGAAGGCCCCAGCCGGGAUGCUAGGCCUAAUUG | 0.419 |
| CGACAUGGCGAAGGCAAGGUCUUCCCCCAGAGGCACAUUCCUCUCCAUCUUUCCACCGCACACCUGGACCAGGCUUGCAGGCUGCCAGACGUCACUCCACCCGCCAGGGA | 0.363 |
| UUGCCUCCAUUCCAUGAGGCAUACAGUAAGGCUGCCUGCUAGUAAGCAGUCACAUAAGUGGGUACCUAUCCAGCCAUUCUCUUUUCAGAGCAUAUAAUACUAUCUUAGCC | 0.367 |
| CUAUGUUACACGUGAGAUUAAAACCAAUUUUUUCCCCAUUUUUUCUCCUUUUUUCUCUUGCUGCCCACAUUGUGCCUUUAUUUUAUGAGCCCCAGUUUUCUGGGCUUAGU | 1.33 |

Set 3 — method: RNAcompete; molecule type: RNA; medium: in vitro; tested at: 20 nM; notes: 7-mer, probes averaged, single round; reference: mean of 7-mers; reading: higher = stronger binding
Target: PABPC1L2, full length, GST fusion (mouse, UniProt A0ABA7IW68)
Construct (chain): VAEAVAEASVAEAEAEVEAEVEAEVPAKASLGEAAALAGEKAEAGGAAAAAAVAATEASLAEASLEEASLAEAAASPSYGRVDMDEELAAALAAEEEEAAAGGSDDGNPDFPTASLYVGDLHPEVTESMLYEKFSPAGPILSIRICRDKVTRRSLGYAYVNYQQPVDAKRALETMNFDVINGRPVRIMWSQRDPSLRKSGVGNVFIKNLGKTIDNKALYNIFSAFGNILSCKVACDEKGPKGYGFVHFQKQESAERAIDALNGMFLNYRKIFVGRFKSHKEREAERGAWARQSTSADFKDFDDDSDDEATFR
| Sequence | 7-mer Z-score |
| --- | --- |
| UGAGAAU | 0.0442 |
| UACAUCA | -0.0319 |
| UAACCUG | -0.101 |
| CGGGAUA | 0.233 |
| GUGCUCC | -0.322 |
| GACCAAC | -0.0536 |
| AGGUACC | -0.278 |
| UAACACG | -0.13 |
| UCUCAUC | -0.389 |
| UGCUAAC | -0.235 |
| CAGAUGG | 0.0841 |
| GGAUCCC | -0.282 |
| CGAGUAC | -0.122 |
| AGCUGCU | -0.135 |
| GGUGCAC | -0.00833 |
| GCGAACG | -0.021 |
| AUGAUAG | -0.0482 |

Set 4 — method: protein binding microarray; molecule type: double-stranded DNA, one strand shown; medium: in vitro; tested at: not given; reference: not given; reading: higher = stronger binding
Target: Histone acetyltransferase KAT6A, winged helix 1, GST fusion (KAT6A, Homo sapiens, UniProt Q92794, residues 1-85)
Notes: 8-mer, flanks averaged, mean of 2 arrays, mostly near background
Construct (chain): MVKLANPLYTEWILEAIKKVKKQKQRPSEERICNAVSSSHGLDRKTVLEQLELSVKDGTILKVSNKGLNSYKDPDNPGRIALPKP
| Sequence | E-score |
| --- | --- |
| CTGAAGAC | -0.0284 |
| AGAACCAC | -0.187 |
| CAATGCGG | 0.169 |
| ACAGGGGG | -0.129 |
| CAGTGACC | -0.0851 |
| CCCTGTAC | -0.101 |
| CGCTCTCA | 0.0733 |
| AAGACTTC | -0.161 |
| CCCAAACA | -0.273 |
| CAGGTTCA | -0.266 |
| CAATTGCA | -0.097 |
| CCCATAAC | -0.0581 |
| CGAACAAA | -0.0374 |
| AAAATTTC | -0.0334 |
| ACAGCGCC | 0.325 |
| TGCGCCCA | 0.0464 |

Set 5 — method: RNA Bind-n-Seq; molecule type: RNA; medium: in vitro; tested at: 100 nM; reference: input RNA pool; reading: higher = stronger binding
Target: RING finger protein unkempt homolog, zinc fingers 1-6, SBP tag (UNK, Homo sapiens, UniProt Q9C0B0, residues 30-357)
Sequence of UniProt Q9C0B0 (30-357, looked up): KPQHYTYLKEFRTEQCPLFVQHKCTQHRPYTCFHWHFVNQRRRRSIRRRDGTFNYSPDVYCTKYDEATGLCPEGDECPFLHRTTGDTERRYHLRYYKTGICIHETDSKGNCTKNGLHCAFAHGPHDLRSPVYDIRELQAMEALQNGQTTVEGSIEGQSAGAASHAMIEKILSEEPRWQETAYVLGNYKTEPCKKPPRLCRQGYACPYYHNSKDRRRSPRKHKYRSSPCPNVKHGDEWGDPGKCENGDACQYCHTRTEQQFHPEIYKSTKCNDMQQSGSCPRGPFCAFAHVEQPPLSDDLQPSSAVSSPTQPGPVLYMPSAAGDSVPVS
Notes: RNA with constant flanks, vertebrate orthologous sites, ends assumed
Shared flanks, not repeated: GGGAGUUCUACAGUCCGACGAUC … CAACAGAGGAUUGAGCAUCA
| Sequence | bound/input enrichment [ratio] |
| --- | --- |
| UACCUGUGUACAUUUCAUUCACAACACUGAAUGCAAAGUAGCGAUUUCCAUAGUCACAAAAUAAUGUAGCUUUAGGGCGAUAUCACCAUGGGUUUUACUCAUGUGCAGGUCUCGAAAAUG | 0.603 |
| UCUCUCAUUUUAUAUCUCCGAAAAAGAUUCUGGAUUUUUAAAACACUUGUUAGUUUUAGUUAGCUCUGCCCUCAUGAAGUAUUACUAUAAUUCACCACAAACAGAUACCUGUCUGAAUUA | 0.575 |
| UCCCAGCACCUUGGUGAAAAGUGUGGAUUGGUUGCUUGUAUUUUCUUUAUUCUUUUUAAUUAGUUUUAUUAUGUAUGCUACUGUUCGGACUGAAAGUAUUCGAUGGCUCAUUCCAGGACA | 4.53 |
| UUGGGAUCAGCUCGCCAAAUAGGAAUAGUAGUAAAAAAAAUAAGCAAAAUGAUAUUUGUAUAGAAAAAACAGAAGUUAAAUCAUGUAAAGUAAAUGUUGCCAAUAUUCCAGGCCCCAAAG | 1.06 |
| AGAAGAGCUGAGUAGAGUAAGGCCGUGUUUACUUAGAGCGUUUUUCCUUGCUUUAGUUUGCUAGCGUUUGGGUGGGUUGUGGCACACACCUUCUGAGGCAGGAGCUGUAGUGAGACCAUG | 0.793 |
| AAUUGAGCAAAAACGUUUCCACUGGGUUUUGCGUGUAAGAAAAAAAUGUACCUGAGCACAUAGAGCUUUUUAAUAGCACUAACCAAUGCCUUUUUAGAUGUAUUUUUGAUGUAUAUAUCU | 0.981 |
| AAAAUACUGGAUGCAGUGUAGAAAUUAUCGAAGGCAGUGACUUCAGCUUUAUAUAUAUUGUUAGUUUUAAAGUCAUCUACUUUUAUUUAAACUUCUAAAUAGCUAUUUCUCUUUGUAAAG | 0.65 |
| GCGAAAGGCCAGAUCCCCUCUGCCCUGCUACUGCUUCUACCAACCGGAAGCACAGAAAACUAGAAUCUCAUUGAUUUUGUUUUUAAAAAUACGUUGAUUUCUUGUAACAUCCAAUAGGAA | 0.261 |
| UUACAGUCAUUGAUGGACUCUAUUUUUUUAUUAUUACUUGGACCUUGGUCGUUUUUAUACUAGCAAAAUGUCUUGUUUUAAUUUGUGUUUUUUUCGGGGGGAGGGAGUAAACUUGCUGAU | 2.62 |
| CCAGUUUUCCAUAUAGGGUUGGCCUCAAAUCUAUAGGAUUUUUGACAAAUGUACCAUAUCUAGUUGUGUUGUUUUACUAUUUUUUUUAUUAGCCUGUAAAUAAAGAUGGCAUCUCUCCUA | 1.23 |
| CCGAAAGGCCAAAUUCCCUCCUCCCUUCUACUGCUUCUACCAACUGGAAGCACAGAAAACUAGAAUUACAUUUAUUUUGUUUUUUAAAAUAUAUGUUGAUUUCGUGUAACAUUCAAUAGG | 0.728 |

For quick reference, copied from above (set 1):
| Sequence | fitted relative affinity |
| --- | --- |
| AACGGTCTCGGTCTCGGGACGTGCTAG | 1.21 z-score |
| TCATTTATGCACTCTCTAACTGTGCTA | 1.38 z-score |
| TCACATATCGGGGTGCGCACTGTGCTA | 0.282 z-score |
| AGGAATCTTGAGTTAGAGACGTGCTAG | -0.644 z-score |
| GGCGGTTCCCTTTTCCTGACGTGCTAG | 6.46 z-score |
